{"data": "Measured values collected from several papers", "note": "Compare with care: the assays were run in different laboratories. Numbers after ± are the reported error.", "UniProt O00459, sequence (whole entry, looked up)": "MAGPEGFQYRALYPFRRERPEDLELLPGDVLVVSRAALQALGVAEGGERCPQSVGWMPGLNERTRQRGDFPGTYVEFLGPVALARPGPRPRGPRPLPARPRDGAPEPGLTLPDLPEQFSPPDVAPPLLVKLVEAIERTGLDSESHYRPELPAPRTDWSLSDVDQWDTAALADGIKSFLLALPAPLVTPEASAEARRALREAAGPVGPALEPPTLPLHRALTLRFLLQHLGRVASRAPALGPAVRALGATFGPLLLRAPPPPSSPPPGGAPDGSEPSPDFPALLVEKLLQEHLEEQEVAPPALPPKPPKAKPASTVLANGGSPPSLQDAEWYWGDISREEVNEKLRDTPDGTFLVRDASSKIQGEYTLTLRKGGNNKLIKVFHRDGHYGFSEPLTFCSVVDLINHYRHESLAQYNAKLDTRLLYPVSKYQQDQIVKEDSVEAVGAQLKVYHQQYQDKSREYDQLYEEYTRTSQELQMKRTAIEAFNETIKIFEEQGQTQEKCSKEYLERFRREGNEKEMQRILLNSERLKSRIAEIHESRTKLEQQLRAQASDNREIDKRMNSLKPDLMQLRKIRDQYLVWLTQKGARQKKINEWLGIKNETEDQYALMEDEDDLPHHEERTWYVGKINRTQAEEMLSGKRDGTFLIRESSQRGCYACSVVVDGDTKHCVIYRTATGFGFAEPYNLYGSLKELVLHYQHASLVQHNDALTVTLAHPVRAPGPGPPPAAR", "UniProt O96013, sequence (whole entry, looked up)": "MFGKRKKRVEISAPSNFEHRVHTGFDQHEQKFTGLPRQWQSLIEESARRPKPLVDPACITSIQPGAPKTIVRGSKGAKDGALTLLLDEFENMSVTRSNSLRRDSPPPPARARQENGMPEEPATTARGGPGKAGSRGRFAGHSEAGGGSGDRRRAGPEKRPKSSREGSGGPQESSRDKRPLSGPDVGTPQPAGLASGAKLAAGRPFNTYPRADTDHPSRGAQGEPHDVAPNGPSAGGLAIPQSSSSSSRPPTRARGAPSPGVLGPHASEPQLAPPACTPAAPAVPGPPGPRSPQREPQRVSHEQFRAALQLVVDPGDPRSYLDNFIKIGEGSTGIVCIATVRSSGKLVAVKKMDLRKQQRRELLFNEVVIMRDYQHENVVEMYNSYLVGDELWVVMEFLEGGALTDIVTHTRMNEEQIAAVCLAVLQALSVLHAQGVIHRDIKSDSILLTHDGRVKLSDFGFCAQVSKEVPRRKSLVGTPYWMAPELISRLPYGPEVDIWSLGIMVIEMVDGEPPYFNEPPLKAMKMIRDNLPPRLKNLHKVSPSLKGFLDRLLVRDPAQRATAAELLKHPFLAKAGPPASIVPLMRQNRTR", "UniProt P00811, sequence (whole entry, looked up)": "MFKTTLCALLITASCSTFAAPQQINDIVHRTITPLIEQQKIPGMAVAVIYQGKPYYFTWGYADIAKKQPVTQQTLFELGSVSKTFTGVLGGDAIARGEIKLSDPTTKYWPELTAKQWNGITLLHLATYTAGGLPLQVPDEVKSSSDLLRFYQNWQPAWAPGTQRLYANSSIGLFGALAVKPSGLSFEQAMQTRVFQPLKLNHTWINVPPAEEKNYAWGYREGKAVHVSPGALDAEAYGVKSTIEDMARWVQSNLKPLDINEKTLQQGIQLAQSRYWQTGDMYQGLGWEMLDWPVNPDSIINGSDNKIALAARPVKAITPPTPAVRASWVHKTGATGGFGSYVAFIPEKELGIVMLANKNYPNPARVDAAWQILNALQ", "UniProt P21784, sequence (whole entry, looked up)": "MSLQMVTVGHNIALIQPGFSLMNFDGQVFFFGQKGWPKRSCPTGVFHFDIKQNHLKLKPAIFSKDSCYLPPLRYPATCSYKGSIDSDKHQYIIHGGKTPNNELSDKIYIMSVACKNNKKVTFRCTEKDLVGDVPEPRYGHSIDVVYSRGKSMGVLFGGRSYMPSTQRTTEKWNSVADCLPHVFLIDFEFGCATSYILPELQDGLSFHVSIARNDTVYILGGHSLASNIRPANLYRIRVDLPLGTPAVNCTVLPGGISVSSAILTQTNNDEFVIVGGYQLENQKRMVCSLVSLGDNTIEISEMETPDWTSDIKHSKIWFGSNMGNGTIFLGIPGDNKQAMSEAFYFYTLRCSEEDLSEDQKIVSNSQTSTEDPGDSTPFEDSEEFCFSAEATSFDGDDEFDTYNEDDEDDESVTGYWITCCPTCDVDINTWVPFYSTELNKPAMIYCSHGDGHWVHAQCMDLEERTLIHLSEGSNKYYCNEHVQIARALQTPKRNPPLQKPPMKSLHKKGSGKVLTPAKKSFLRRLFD", "UniProt P61981, sequence (whole entry, looked up)": "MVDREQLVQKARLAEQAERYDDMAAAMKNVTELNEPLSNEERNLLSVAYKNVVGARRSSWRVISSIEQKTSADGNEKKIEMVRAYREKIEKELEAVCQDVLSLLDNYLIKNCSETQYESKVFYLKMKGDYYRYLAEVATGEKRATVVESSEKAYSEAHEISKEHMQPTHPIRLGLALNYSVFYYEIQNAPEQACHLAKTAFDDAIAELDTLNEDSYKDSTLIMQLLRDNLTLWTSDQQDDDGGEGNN", "UniProt P0DMV8, sequence (whole entry, looked up)": "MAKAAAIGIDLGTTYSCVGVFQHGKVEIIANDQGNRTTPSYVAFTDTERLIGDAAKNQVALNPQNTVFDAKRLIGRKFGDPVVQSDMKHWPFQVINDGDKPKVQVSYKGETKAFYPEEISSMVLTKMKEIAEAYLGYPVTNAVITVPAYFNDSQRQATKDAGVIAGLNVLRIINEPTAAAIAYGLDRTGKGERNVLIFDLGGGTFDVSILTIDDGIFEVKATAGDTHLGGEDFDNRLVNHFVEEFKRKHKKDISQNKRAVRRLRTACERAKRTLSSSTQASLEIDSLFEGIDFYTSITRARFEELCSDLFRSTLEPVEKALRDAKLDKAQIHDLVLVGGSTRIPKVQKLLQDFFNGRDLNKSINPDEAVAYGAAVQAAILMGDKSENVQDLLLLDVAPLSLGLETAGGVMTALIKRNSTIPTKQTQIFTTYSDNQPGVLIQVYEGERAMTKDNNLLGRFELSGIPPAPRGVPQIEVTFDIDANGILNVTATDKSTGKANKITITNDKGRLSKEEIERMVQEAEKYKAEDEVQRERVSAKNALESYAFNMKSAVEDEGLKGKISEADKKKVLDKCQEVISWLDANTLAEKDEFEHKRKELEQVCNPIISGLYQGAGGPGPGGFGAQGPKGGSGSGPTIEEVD", "UniProt P50552, sequence (whole entry, looked up)": "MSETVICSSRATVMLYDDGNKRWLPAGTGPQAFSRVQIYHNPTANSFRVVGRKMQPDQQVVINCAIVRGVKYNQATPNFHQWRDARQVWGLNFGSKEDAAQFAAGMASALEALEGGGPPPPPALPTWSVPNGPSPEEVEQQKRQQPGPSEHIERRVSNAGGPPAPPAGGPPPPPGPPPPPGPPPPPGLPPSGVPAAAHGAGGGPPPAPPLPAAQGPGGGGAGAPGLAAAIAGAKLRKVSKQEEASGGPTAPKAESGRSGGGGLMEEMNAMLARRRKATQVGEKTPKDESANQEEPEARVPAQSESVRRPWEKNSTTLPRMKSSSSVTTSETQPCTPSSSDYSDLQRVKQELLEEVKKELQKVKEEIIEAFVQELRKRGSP", "UniProt Q9VK33, sequence (whole entry, looked up)": "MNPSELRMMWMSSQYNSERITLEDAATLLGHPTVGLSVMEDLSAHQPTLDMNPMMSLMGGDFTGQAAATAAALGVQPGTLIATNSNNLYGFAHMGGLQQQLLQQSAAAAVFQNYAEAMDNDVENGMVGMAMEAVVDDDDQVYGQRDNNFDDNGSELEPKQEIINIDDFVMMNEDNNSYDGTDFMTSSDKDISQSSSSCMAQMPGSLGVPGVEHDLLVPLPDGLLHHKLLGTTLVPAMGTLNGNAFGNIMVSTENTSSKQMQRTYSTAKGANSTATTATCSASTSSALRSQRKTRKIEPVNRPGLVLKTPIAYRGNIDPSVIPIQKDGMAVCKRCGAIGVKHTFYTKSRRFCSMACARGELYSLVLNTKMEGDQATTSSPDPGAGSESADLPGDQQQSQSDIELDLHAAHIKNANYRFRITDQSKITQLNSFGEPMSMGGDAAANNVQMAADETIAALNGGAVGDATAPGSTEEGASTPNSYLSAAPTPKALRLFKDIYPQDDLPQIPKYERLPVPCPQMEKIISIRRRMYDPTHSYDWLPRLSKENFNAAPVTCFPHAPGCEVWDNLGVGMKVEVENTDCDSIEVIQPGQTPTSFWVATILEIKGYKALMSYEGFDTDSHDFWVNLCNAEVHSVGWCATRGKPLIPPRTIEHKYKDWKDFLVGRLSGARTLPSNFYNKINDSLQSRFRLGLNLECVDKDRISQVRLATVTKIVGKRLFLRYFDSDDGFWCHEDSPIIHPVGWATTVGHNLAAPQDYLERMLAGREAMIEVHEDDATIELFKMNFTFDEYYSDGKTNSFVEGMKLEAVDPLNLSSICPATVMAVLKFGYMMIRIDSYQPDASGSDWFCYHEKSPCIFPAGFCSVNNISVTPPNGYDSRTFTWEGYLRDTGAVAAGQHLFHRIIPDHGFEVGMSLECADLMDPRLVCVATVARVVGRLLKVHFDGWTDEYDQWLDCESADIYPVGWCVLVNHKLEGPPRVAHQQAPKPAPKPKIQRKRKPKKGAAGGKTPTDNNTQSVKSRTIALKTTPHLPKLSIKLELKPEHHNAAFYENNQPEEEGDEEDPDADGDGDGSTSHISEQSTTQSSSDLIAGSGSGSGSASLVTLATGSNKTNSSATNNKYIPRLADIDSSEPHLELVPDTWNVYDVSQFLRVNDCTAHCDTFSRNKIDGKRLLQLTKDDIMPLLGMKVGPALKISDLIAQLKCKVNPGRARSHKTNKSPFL"}
{"Structure (SMILES)": "O=C(N[C@@H]1c2ccccc2C[C@H]1N1CCCC1)c1ccc(-c2ccnc3[nH]ccc23)nc1", "target": "PAK4 (Homo sapiens, UniProt O96013)", "assay": "binding, competition with immobilised ligand", "Kd": "0.17 µM"}
{"Structure (SMILES)": "CC(C)C[C@H](NC(=O)[C@@H](N)CCC(N)=O)C(=O)N[C@@H](C)C(=O)N[C@H](C(=O)N[C@@H](CCCCN)C(=O)N[C@@H](C)C(=O)N[C@@H](C)C(=O)N[C@@H](CCCNC(=N)N)C(=O)N[C@@H](CCCCN(C)C)C(=O)N[C@@H](CO)C(=O)N[C@@H](C)C(=O)N1CCC[C@H]1C(=O)N[C@@H](C)C(=O)N[C@H](C(=O)NCC(=O)NCC(=O)N[C@H](C(N)=O)C(C)C)[C@@H](C)O)[C@@H](C)O", "target": "Polycomb protein Sfmbt (Sfmbt, Drosophila melanogaster, UniProt Q9VK33)", "assay": "fluorescence polarization", "conditions": "pH 8.0", "Kd": "20.3 µM"}
{"Structure (SMILES)": "CC[C@H](C)[C@H](NC(=O)[C@H](CNC(=O)COCCNC(=O)CN(CCNC(=O)CN(CCNC(=O)CN(CCNC(=O)CN(CCNC(=O)[C@H](CCCNC(=N)N)NC(C)=O)C(=O)Cn1ccc(N)nc1=O)C(=O)Cn1cnc2c(=O)[nH]c(N)nc21)C(=O)Cn1cnc2c(=O)[nH]c(N)nc21)C(=O)Cn1ccc(N)nc1=O)NC(=O)[C@H](C)NC(=O)[C@H](CCCNC(=N)N)NC(=O)[C@H](CCCCN)NC(=O)[C@H](CCC(N)=O)NC(=O)[C@H](CCC(N)=O)NC(=O)[C@H](CC(N)=O)NC(=O)[C@@H](NC(=O)[C@H](CC(C)C)NC(=O)[C@H](CC(N)=O)NC(=O)[C@@H]1CCCN1C(=O)[C@H](CC(=O)O)NC(=O)[C@H](CC(C)C)NC(=O)[C@H](C)NC(=O)[C@H](C)NC(=O)[C@H](CCC(=O)NCC(=O)NCCN(CC(=O)NCCN(CC(=O)NCCN(CC(=O)NCCN(CC(=O)N[C@@H](CCCNC(=N)N)C(N)=O)C(=O)Cn1cnc2c(=O)[nH]c(N)nc21)C(=O)Cn1ccc(N)nc1=O)C(=O)Cn1ccc(N)nc1=O)C(=O)Cn1cnc2c(=O)[nH]c(N)nc21)NC(=O)[C@H](Cc1c[nH]c2ccccc12)NC(=O)[C@H](Cc1ccc(O)cc1)NC(=O)[C@H](CCCNC(=N)N)NC(=O)[C@H](CC(N)=O)NC(=O)[C@H](CCCNC(=N)N)NC(=O)[C@H](CCSC)NC(=O)[C@H](CCC(=O)O)NC(=O)[C@H](CCCCN)NC(=O)[C@H](CO)NC(=O)[C@H](Cc1ccccc1)NC(C)=O)[C@@H](C)O)C(=O)N[C@@H](CCCNC(=N)N)C(=O)N[C@@H](CO)C(=O)N[C@H](C(=O)N[C@@H](Cc1ccc(O)cc1)C(=O)N[C@@H](CCC(=O)O)C(=O)N[C@@H](CCC(=O)O)C(=O)NCC(=O)N[C@@H](CCC(=O)O)C(N)=O)[C@@H](C)CC", "target": "ERBB2 (Homo sapiens, UniProt P04626)", "assay": "binding, SPR", "Kd": "0.0089 µM"}
{"Structure (SMILES)": "C(#C[P+](c1ccccc1)(c1ccccc1)c1ccccc1)c1ccccc1", "target": "Heat shock 70 kDa protein 1A, ADP-bound (HSPA1A, Homo sapiens, UniProt P0DMV8)", "assay": "ITC", "system": "3% DMSO", "conditions": "pH 5.5, 25 °C, ADP-bound full-length residues 1-641", "Kd": "~3.8 µM"}
{"Structure (SMILES)": "CC[C@H](C)[C@H](NC(=O)[C@H](CO)NC(=S)Nc1ccc2c(c1)C(=O)OC21c2ccc(O)cc2Oc2cc(O)ccc21)C(=O)N[C@@H](CCC(=O)O)C(=O)N[C@@H](CCCCN)C(=O)NCC(=O)NCC(=O)N[C@@H](CCP(=O)(O)O)C(=O)N[C@@H](CC(C)C)C(=O)N1CCC[C@H]1C(=O)N[C@@H](CCCCN)C(=O)N[C@H](C(=O)N[C@@H](Cc1c[nH]c2ccccc12)C(=O)N[C@@H](CC(C)C)C(=O)N[C@H](C(=O)N1CCC[C@H]1C(=O)N[C@@H](CCCNC(=N)N)C(=O)O)C(C)C)C(C)C", "target": "YWHAG (Homo sapiens, UniProt P61981)", "assay": "binding, fluorescence anisotropy", "conditions": "pH 7.5, FITC-labelled phosphopeptide titration", "Kd": "33.1 µM"}
{"Structure (SMILES)": "C[C@H](N)C(=O)N[C@@H](CCCNC(=N)N)C(=O)N[C@H](C(=O)N[C@@H](CCCC[N+](C)(C)C)C(=O)N[C@@H](CCC(N)=O)C(=O)N[C@H](C(=O)N[C@@H](C)C(=O)N[C@@H](CCCNC(=N)N)C(=O)N[C@@H](CCCCN)C(=O)N[C@@H](CO)C(=O)N[C@H](C(=O)NCC(N)=O)[C@@H](C)O)[C@@H](C)OP(=O)(O)O)[C@@H](C)O", "target": "V(D)J recombination-activating protein 2, PHD finger (Rag2, Mus musculus, UniProt P21784)", "assay": "binding, isothermal titration calorimetry", "conditions": "pH 7.2, histone H3 peptide", "Kd": "> 480 µM"}
{"Structure (SMILES)": "C=C[C@H]1CN(Cc2ccccn2)C(=O)[C@@H]2CCC[C@H]1N2[S@@+]([O-])c1cc(Cl)cc(Cl)c1", "target": "uncharacterized protein, residues 23-253 (Pseudomonas aeruginosa, UniProt Q9HYX8)", "assay": "binding, competitive fluorescence polarization", "conditions": "30 min, protein 40 nM, together with: fluorescent tracer 1 nM", "Kd": "0.851 ± 0.098 µM"}
{"Structure (SMILES)": "Cc1ccc(O)c(NC(=O)C2CCCC2)c1", "target": "Beta-lactamase (ampC, Escherichia coli K-12, UniProt P00811)", "Kd": "4500 µM"}
{"Structure (SMILES)": "CSCC[C@@H]1NC(=O)[C@H]([C@@H](C)O)NC(=O)[C@H](CC(C)C)NC(=O)[C@H](Cc2c[nH]c3ccccc23)NC(=O)CNC(=O)[C@H](C)NC(=O)[C@H](CO)NC(=O)[C@@H](NC(=O)[C@H](CCCCN)NC(=O)[C@H](CC(=O)O)NC(=O)[C@@H](N)CO)CSCCC(=O)N2CN3CN(C2)C(=O)CCSC[C@H](NC1=O)C(=O)N[C@@H](CCC(N)=O)C(=O)N[C@@H](CCCCN)C(=O)N[C@@H](CC(C)C)C(=O)N[C@@H](Cc1c[nH]cn1)C(=O)N[C@@H](CC(C)C)C(=O)N[C@H](C(=O)N[C@@H](C)C(N)=O)CSCCC3=O", "target": "CD274 (Homo sapiens, UniProt Q9NZQ7)", "assay": "binding, SPR", "Kd": "0.0347 µM"}
{"Structure (SMILES)": "CC(=O)N[C@@H](CO)C(=O)N[C@@H](Cc1ccccc1)C(=O)N[C@@H](CCC(=O)O)C(=O)N[C@@H](Cc1ccccc1Cl)C(=O)N1CCC[C@H]1C(=O)N1CCC[C@H]1C(=O)N[C@@H]1C(=O)N2[C@@H](C=C[C@H]1C)CC[C@H]2C(=O)N[C@H](C(=O)N[C@@H](CCC(=O)O)C(=O)N[C@@H](CC(=O)O)C(=O)N[C@@H](CCC(=O)O)C(=O)N[C@@H](CC(C)C)C(N)=O)[C@@H](C)O", "target": "VASP (Homo sapiens, UniProt P50552)", "assay": "binding, fluorescence", "Kd": "1.5 µM"}
{"Structure (SMILES)": "CSCC[C@H](NC(=O)[C@H](Cc1c[nH]cn1)NC(=O)[C@H](C)NC(=O)[C@H](Cc1ccc(OP(=O)(O)O)cc1)NC(=O)[C@@H]1CCCN1C(=O)[C@H](CCC(N)=O)NC(=O)[C@H](CCCNC(=N)N)NC(=O)[C@H](CCC(=O)O)NC(=O)[C@H](CC(=O)O)NC(=O)[C@H](Cc1ccccc1)NC(=O)[C@H](CO)NC(=O)[C@H](C)NC(=O)[C@H](CCCNC(=N)N)NC(=O)c1ccc2c(c1)C(=O)OC21c2ccc(N(C)C)cc2Oc2cc(N(C)C)ccc21)C(=O)N[C@@H](CC(N)=O)C(=O)NCC(=O)NCC(=O)N[C@@H](CCCNC(=N)N)C(=O)N[C@@H](CC(=O)O)C(=O)O", "target": "Phosphatidylinositol 3-kinase regulatory subunit beta, SH2 domain (Homo sapiens, UniProt O00459)", "assay": "binding", "Kd": "0.588 µM"}
{"note": "Repeated from above:"}
{"Structure (SMILES)": "CSCC[C@@H]1NC(=O)[C@H]([C@@H](C)O)NC(=O)[C@H](CC(C)C)NC(=O)[C@H](Cc2c[nH]c3ccccc23)NC(=O)CNC(=O)[C@H](C)NC(=O)[C@H](CO)NC(=O)[C@@H](NC(=O)[C@H](CCCCN)NC(=O)[C@H](CC(=O)O)NC(=O)[C@@H](N)CO)CSCCC(=O)N2CN3CN(C2)C(=O)CCSC[C@H](NC1=O)C(=O)N[C@@H](CCC(N)=O)C(=O)N[C@@H](CCCCN)C(=O)N[C@@H](CC(C)C)C(=O)N[C@@H](Cc1c[nH]cn1)C(=O)N[C@@H](CC(C)C)C(=O)N[C@H](C(=O)N[C@@H](C)C(N)=O)CSCCC3=O", "target": "CD274 (Homo sapiens, UniProt Q9NZQ7)", "assay": "binding, SPR", "Kd": "0.0347 µM"}
